Results gathered from unrelated publications.
Numbered parts are unrelated; each lists some results of a single study.

Sample 1 — method: protein binding microarray; form: double-stranded DNA, one strand shown; matrix: in vitro; concentration: not given; reference: not given; direction: higher = stronger binding; endpoint: E-score
Target: Histone acetyltransferase KAT6A, both winged helices, GST fusion (KAT6A, Homo sapiens, UniProt Q92794, residues 1-181)
Setting: 8-mer, flanks averaged, mean of 2 arrays, mostly near background
Target sequence (chain): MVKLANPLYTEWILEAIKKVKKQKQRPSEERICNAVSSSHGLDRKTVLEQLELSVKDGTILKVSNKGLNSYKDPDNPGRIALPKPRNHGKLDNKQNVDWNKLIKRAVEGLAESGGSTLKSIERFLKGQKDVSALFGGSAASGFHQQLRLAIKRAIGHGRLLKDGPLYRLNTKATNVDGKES
AAGCGTAC: 0.0864
CCGGACTA: 0.149
AGCAGACC: -0.0481
TAGGTTAA: -0.116
AATAAGAC: -0.198
GAGCTGAA: -0.229

Sample 2 — method: competition protein-binding microarray; form: double-stranded DNA, one strand shown; matrix: in vitro; concentration: 2 µM; together with: Pho4 competitor, 0.05 µM; direction: higher = stronger binding; endpoint: fluorescence intensity; shared flanks, not repeated: … GTCTTGATTCGCTTGACGCTGCTG
Target: Centromere-binding protein 1, full length, His-tagged (CBF1, Saccharomyces cerevisiae, UniProt P17106, residues 1-351)
Chain of UniProt P17106 (whole entry, looked up): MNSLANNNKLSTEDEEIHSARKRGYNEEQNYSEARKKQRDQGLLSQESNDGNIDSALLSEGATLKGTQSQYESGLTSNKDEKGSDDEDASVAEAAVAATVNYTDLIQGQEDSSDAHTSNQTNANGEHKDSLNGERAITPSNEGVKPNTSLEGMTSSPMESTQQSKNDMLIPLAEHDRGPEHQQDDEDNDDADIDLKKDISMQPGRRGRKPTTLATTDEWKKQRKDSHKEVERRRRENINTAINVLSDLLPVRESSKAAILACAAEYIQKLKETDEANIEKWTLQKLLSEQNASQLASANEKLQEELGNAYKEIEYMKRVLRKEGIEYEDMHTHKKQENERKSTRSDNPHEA
Setting: whole 60-bp probe, lowest competitor level
CGGGGTTAAGTTTGTCACTCCACTTGCTTGCAGCAG: 92.6 a.u.
CATACCCAACCTTGCTGAGTGGGTGAAGATATTTGT: 75.1 a.u.
AAGCTGAAAAGGCTAAACGTGCCGAGTCCAGCCAAA: 71.8 a.u.
AAAGCGGTAATTTGTAGGGTGGGTGCAGATATCTAT: 75.2 a.u.
CTTTCCCGATCTTGGCGCGTGGGTGTAGCACATTTG: 73.5 a.u.
CATACCCAACCTTGTCCTGTGGGTGAAGATATTTGT: 62.7 a.u.
CGTCCTAGTGATTGTTGCGTGGGTGCCATGAGGAAG: 80.1 a.u.

Sample 3 — method: universal PBM; form: double-stranded DNA, one strand shown; matrix: in vitro; concentration: not given; direction: higher = stronger binding; endpoint: E-score
Target: Sal-like protein 4, full length isoform B (SALL4, Homo sapiens, UniProt Q9UJQ4-2, residues 1-616)
Setting: 8-mer, flanks averaged, mean of replicates
Target sequence (chain): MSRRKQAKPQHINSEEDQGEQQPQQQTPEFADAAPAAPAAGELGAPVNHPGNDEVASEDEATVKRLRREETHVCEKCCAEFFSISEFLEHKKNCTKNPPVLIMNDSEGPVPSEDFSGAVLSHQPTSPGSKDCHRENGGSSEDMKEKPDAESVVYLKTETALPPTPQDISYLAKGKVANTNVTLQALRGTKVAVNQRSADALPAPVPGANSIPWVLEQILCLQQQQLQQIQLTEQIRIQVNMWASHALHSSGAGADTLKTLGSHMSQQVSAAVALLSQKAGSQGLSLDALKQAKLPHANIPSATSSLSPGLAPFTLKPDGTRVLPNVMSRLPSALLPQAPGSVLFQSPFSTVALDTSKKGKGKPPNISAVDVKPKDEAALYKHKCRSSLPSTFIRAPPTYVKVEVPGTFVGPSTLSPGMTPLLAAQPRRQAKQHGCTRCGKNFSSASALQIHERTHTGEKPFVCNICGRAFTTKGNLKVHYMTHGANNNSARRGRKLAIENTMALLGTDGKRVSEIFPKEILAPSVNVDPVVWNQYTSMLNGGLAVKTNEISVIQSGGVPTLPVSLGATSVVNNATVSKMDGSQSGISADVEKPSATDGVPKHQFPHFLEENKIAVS
TGGCATAA: 0.3
AAAGTAGT: 0.0575
AGGTCAAG: -0.146
ACTAAGAC: -0.0142
AGCAAGAG: -0.0716

Mixed results
PhoQ, residues 284 288 289 292 302 303 SIHLQL
fold induction (PhoP, residues 12 14 15 18 19 AWHSL (Escherichia coli, UniProt P23836); Sort-seq, refers to: YFP reporter; E. coli; PhoQ-PhoP variant library, together with: 10 µM Mg2+; reference: high Mg2+ state, higher = stronger signaling): 0.481
